Published values collected from several papers.
Compare with care: the assays were run in different laboratories. Values joined by “and” are separate records of one study, mostly repeats; a detail may differ. Numbers after ± are the reported error.

SMILES | tested on | assay | test system | conditions | scale | measurement | result
CC(C(=O)O)n1nc(Cn2cc3cc(OCC[18F])c(Cl)cc3n2)c2ccccc2c1=O (racemic) | – | HPLC | nonhuman primate, plasma | 120 min post-injection | baseline: plasma radioactivity | lipophilic radiometabolite | 9%
Cc1ccc(OCCN(C)C)cc1C(=O)N[C@H](C)c1cc(-c2ccn(C)n2)nc2ccccc12 | Vero E6 | – | – | 15.62 µM | – | viability | 86.1% and 95.5% and 80.4%
CC[C@H](C)[C@H](NC(=O)[C@H](CCCCN)NC(=O)CNC(=O)[C@H](CC(C)C)NC(=O)[C@H](Cc1ccccc1)NC(=O)[C@H](CCCCN)NC(=O)[C@H](CO)NC(=O)[C@H](Cc1ccccc1)NC(=O)[C@H](Cc1c[nH]c2ccccc12)NC(=O)[C@H](CCC(N)=O)NC(=O)[C@@H](NC(=O)[C@H](Cc1ccccc1)NC(=O)CCCCCNC(=O)CN1CCN(CC(=O)O)CCN(CC(=O)O)CCN(CC(=O)O)CC1)C(C)C)C(=O)N[C@@H](CCC(=O)O)C(=O)N1CCC[C@H]1C(=O)N[C@@H](CC(=O)O)C(=O)N[C@H](C(=O)N[C@@H](CO)C(=O)N[C@@H](CCC(N)=O)C(=O)N[C@H](C(=O)N[C@@H](CCC(N)=O)C(=O)N[C@@H](CC(=O)O)C(=O)N1CCC[C@H]1C(=O)N[C@@H](CC(N)=O)C(=O)N[C@@H](CC(=O)O)C(=O)N[C@@H](CCC(N)=O)C(=O)N[C@@H](Cc1ccc(O)cc1)C(=O)N[C@@H](CCC(=O)O)C(=O)N1CCC[C@H]1C(=O)N[C@@H](Cc1ccccc1)C(=O)O)C(C)C)C(C)C [copper-64 labelled] | – | dynamic PET | mouse both sexes, CT26 tumour, untreated, tumour | intravenous, 100 µCi/mouse, 510 s | – | SUVmean | 0.74 SUV
Cc1cc(Oc2nc(N3CC[C@@H](c4ccncc4)C3)ncc2F)[nH]n1 | Mycobacterium tuberculosis | OD | H37Rv PurF CRISPRi knockdown | 0.03125 µM, with: anhydrotetracycline low | – | normalised growth | 2% and 5% and 4%
O=C1NC2(CC2)COc2ncc(F)cc2[C@H]2COCCN2c2ccn3ncc1c3n2 | – | – | Sprague-Dawley rat, female, blood | oral, 5 mg/kg/day, 4 weeks, end of recovery, subacute toxicity | – | mean corpuscular volume | 56.7 ± 1.6 fL
CSCC[C@H](N)C(=O)N[C@@H](C)C(=O)N[C@@H](CCCNC(=N)N)C(=O)N[C@@H](CCCNC(=N)N)C(=O)N[C@@H](CC(=O)O)C(=O)N[C@@H](CCCCN)C(=O)N[C@H](C(=O)N[C@@H](CC(=O)O)C(=O)N[C@@H](Cc1ccccc1)C(=O)N[C@@H](C)C(=O)N[C@@H](CCCNC(=N)N)C(=O)N[C@@H](CCCNC(=N)N)C(=O)N[C@@H](CCCNC(=N)N)C(=O)N[C@@H](CCCNC(=N)N)C(=O)NCCCCCC(=O)NCCCCC(NC(=O)CCCCCNC(=O)[C@H](CCCNC(=N)N)NC(=O)[C@H](CCCNC(=N)N)NC(=O)[C@H](CCCNC(=N)N)NC(=O)[C@H](CCCNC(=N)N)NC(=O)[C@H](C)NC(=O)[C@H](Cc1ccccc1)NC(=O)[C@H](CC(=O)O)NC(=O)[C@@H](NC(=O)[C@H](CCCCN)NC(=O)[C@H](CC(=O)O)NC(=O)[C@H](CCCNC(=N)N)NC(=O)[C@H](CCCNC(=N)N)NC(=O)[C@H](C)NC(=O)[C@@H](N)CCSC)[C@@H](C)O)C(=O)NCCCCC(NC(=O)C(CCCCNC(=O)CCCCCNC(=O)[C@H](CCCNC(=N)N)NC(=O)[C@H](CCCNC(=N)N)NC(=O)[C@H](CCCNC(=N)N)NC(=O)[C@H](CCCNC(=N)N)NC(=O)[C@H](C)NC(=O)[C@H](Cc1ccccc1)NC(=O)[C@H](CC(=O)O)NC(=O)[C@@H](NC(=O)[C@H](CCCCN)NC(=O)[C@H](CC(=O)O)NC(=O)[C@H](CCCNC(=N)N)NC(=O)[C@H](CCCNC(=N)N)NC(=O)[C@H](C)NC(=O)[C@@H](N)CCSC)[C@@H](C)O)NC(=O)CCCCCNC(=O)[C@H](CCCNC(=N)N)NC(=O)[C@H](CCCNC(=N)N)NC(=O)[C@H](CCCNC(=N)N)NC(=O)[C@H](CCCNC(=N)N)NC(=O)[C@H](C)NC(=O)[C@H](Cc1ccccc1)NC(=O)[C@H](CC(=O)O)NC(=O)[C@@H](NC(=O)[C@H](CCCCN)NC(=O)[C@H](CC(=O)O)NC(=O)[C@H](CCCNC(=N)N)NC(=O)[C@H](CCCNC(=N)N)NC(=O)[C@H](C)NC(=O)[C@@H](N)CCSC)[C@@H](C)O)C(N)=O)[C@@H](C)O (stereo partly shown) | – | – | C57BL/6 mouse female, uterus | dose not given, 3 h | baseline: total | mean tissue distribution | 1.74%
CC(CCC(=O)NCC(=O)O)C1CCC2C3CCC4CC(OC5OC(C(=O)O)C(O)C(O)C5O)CCC4(C)C3CC(O)C12C (stereo not shown) | – | refers to: glucuronide to parent ratio | men, plasma | dose not given | baseline: C/C over T/T | ratio of metabolic ratios | 4.68
O=C(c1cc(Cc2n[nH]c(=O)c3ccccc23)ccc1F)N1CC(CNC2CC2)C1 | – | – | female Wistar Han rat | oral, 15 mg/kg, day 1 | – | Cmax | 2940 ng/mL
CN1Cc2cc(Cl)ccc2-n2c(nnc2C2CCN(c3cccc([18F])n3)CC2)C1 | – | – | C57BL/6 mouse male, urinary bladder | intravenous, 3.7 MBq, 5 min | – | tissue uptake | 3.49 ± 0.66 %ID/g
C[C@H](NC(=O)[C@H](CCCNC(=N)N)NC(=O)[C@H](CCCNC(=N)N)NC(=O)[C@H](CO)NC(=O)[C@H](CO)NC(=O)[C@H](CO)NC(=O)CNC(=O)[C@H](Cc1ccc(O)cc1)NC(=O)CNC(=O)CNC(=O)[C@H](Cc1ccccc1)NC(=O)[C@H](Cc1ccccc1)NC(=O)Cc1ccc2ccccc2c1)C(=O)N1CCC[C@H]1C(=O)N[C@@H](CCC(N)=O)C(=O)N[C@H](C(=O)O)[C@@H](C)O | – | IVIS imaging | mouse, non-injured, brain | intravenous, tail vein, 1 µmol/kg, Cy5.5-conjugated | – | time to peak brain accumulation | 4 h
CCN(CC)CCOc1ccc(-c2nnn(Cc3ccc(OC)cc3)c2N)cc1 | – | metabolic stability | rat, liver microsomes | – | – | half-life | 1.2 h
Cc1ccc(OCCN(C)C)cc1C(=O)N[C@H](C)c1cc(-c2cncs2)nc2ccccc12 | Vero E6 | – | – | 250 µM | – | viability | -3.85% and 0.192%
CCCC[C@H]1C(=O)N(C)[C@@H](CCCC)C(=O)N[C@@H](CCCNC(=O)CN2CCN(CC(=O)O)CCN(CC(=O)O)CCN(CC(=O)O)CC2)C(=O)N[C@H](C(=O)NCC(N)=O)CSCC(=O)N[C@@H](Cc2ccc(O)cc2)C(=O)N(C)[C@@H](C)C(=O)N[C@@H](CC(N)=O)C(=O)N2CCC[C@H]2C(=O)N[C@@H](Cc2c[nH]cn2)C(=O)N[C@@H](CC(C)C)C(=O)N(C)CC(=O)N[C@@H](Cc2c[nH]c3ccccc23)C(=O)N[C@@H](CO)C(=O)N[C@@H](Cc2c[nH]c3ccccc23)C(=O)N1C [gallium-68 labelled] | – | – | NOD/SCID mice, CHO-hPD-L1 xenograft, tumour over muscle | iv, dose not given, 30 min | baseline: tumour over muscle | tissue-to-tissue ratio | 8.61 ± 1.26
C=Cc1c(C)c2cc3nc(c(CC(=O)[O-])c4[n-]c(cc5nc(cc1[n-]2)C(C)=C5CC)c(C)c4C(=O)[O-])C(CCC(=O)[O-])C3C.[Cu+2].[Na+].[Na+].[Na+] (stereo not shown) | – | – | Wistar rat, female | oral, 1000 mg/kg daily, 28 days | – | serum creatinine | 0.42 ± 0.1 mg/dL
C[C@H](NCc1ccc(-c2ccc(C(F)(F)F)cc2)cc1)C(N)=O | – | general toxicity | Sprague-Dawley rat | oral, multiple doses | – | NOAEL | > 200 mg/kg
CSCC[C@H](NC(=O)[C@@H](NC(=O)[C@H](CC(C)C)NC(=O)[C@@H](NC(=O)[C@H](Cc1c[nH]cn1)NC(=O)CCCCCNC(=O)[C@H](CCCNC(=N)N)NC(=O)[C@H](CCCNC(=N)N)NC(=O)[C@H](CCCNC(=N)N)NC(=O)[C@H](CCC(N)=O)NC(=O)[C@H](CCCNC(=N)N)NC(=O)[C@H](CCCNC(=N)N)NC(=O)[C@H](CCCCN)NC(=O)[C@H](CCCCN)NC(=O)[C@H](CCCNC(=N)N)NC(=O)CNC(=O)[C@@H](N)Cc1ccc(O)cc1)C(C)C)C(C)C)C(=O)N[C@@H](CS)C(=O)N[C@@H](C)C(=O)N[C@H](C(N)=O)[C@@H](C)O | – | – | C57BL/6J mice | Alzet osmotic pump, 3 mg/kg, 8 weeks | – | mean cell volume | 47.1 fL

Repeated from above:
SMILES | tested on | assay | test system | conditions | scale | measurement | result
O=C(c1cc(Cc2n[nH]c(=O)c3ccccc23)ccc1F)N1CC(CNC2CC2)C1 | – | – | female Wistar Han rat | oral, 15 mg/kg, day 1 | – | Cmax | 2940 ng/mL
CC(C(=O)O)n1nc(Cn2cc3cc(OCC[18F])c(Cl)cc3n2)c2ccccc2c1=O (racemic) | – | HPLC | nonhuman primate, plasma | 120 min post-injection | baseline: plasma radioactivity | lipophilic radiometabolite | 9%
